Published values of several laboratories.
Lines come from different studies, so protocols differ. Numbers after ± are the reported error.

C=Cc1c(C)c2cc3nc(c(CC(=O)O)c4[nH]c(cc5nc(cc1[nH]2)C(C)=C5CC)c(C)c4C(=O)O)[C@@H](CCC(=O)NCCCC[C@H](NC(C)=O)C(=O)N[C@@H](Cc1ccccc1)C(=O)N[C@@H](Cc1ccccc1)C(=O)N[C@H](C(=O)N[C@@H](CC(C)C)C(=O)N[C@@H](CCCCN)C(=O)N[C@@H](CO)C(=O)NCC(=O)N[C@@H](CCC(N)=O)C(=O)NCC(=O)N[C@@H](Cc1ccc(O)cc1)C(=O)N[C@@H](CCCNC(=N)N)C(=O)N[C@@H](Cc1c[nH]c2ccccc12)C(=O)N[C@@H](CC(=O)O)C(=O)N[C@@H](CO)C(=O)N[C@@H](Cc1ccc(O)cc1)C(=O)N[C@@H](CCCNC(=N)N)C(=O)N[C@@H](Cc1c[nH]c2ccccc12)C(=O)N[C@@H](Cc1c[nH]cn1)C(=O)N1CCC[C@H]1C(=O)N[C@@H](CO)C(=O)N[C@@H](CS)C(=O)N[C@@H](C)C(=O)N[C@@H](CS)C(=O)NCC(=O)NCC(=O)N[C@@H](CO)C(=O)N[C@@H](CCCCN)C(N)=O)C(C)C)[C@@H]3C
cytotoxicity (CCK-8; 4T1, mouse; 1 to 200 µM, 24 h): not toxic

CCCCCCCCCCCCC(=O)O.O=C1CCCC2C3CCCN4CCCC(CN12)C34 (centres unmarked)
limiting molar conductivity (conductometry; water; 308.15 K): 51.68 ± 0.07 S cm²/mol

CC(=CCC(O)C(C)=Cc1csc(C)n1)CC=CC(C)C(O)C(C)C(=O)C(C)(C)C(O)CC(=O)O (centres unmarked)
AUC (human, plasma; intravenous infusion, 15.0 mg/m2 KOS-1584, 3 h infusion, cycle 1): 226 ± 165 ng·h/mL

CC[C@H](C)C(=O)N1CCC(NC(=O)Nc2ccc(OC(F)(F)F)c(F)c2)CC1
AUC(0-48h) (human, fasted, plasma; oral, 8 mg, single dose, geometric least-squares mean): 1320 ng·h/mL

CC[C@@H]1C[C@]1(NC(=O)[C@@H]1C[C@@]2(CN1C(=O)[C@@H](NC(=O)[C@@H](NC(=O)[C@@H]1CCCCN1C(C)C)C1CCCCC1)C(C)(C)C)C(C)(C)C21CCC1)C(=O)NS(=O)(=O)N1CCCC1
subjects with adverse event (refers to: Pain; healthy human; oral, 50 mg, together with: ritonavir 100 mg): 0%

Cc1ccc2ccc3ccc(C)nc3c2n1.O.[99Tc+].[C-]#[O+].[C-]#[O+].[C-]#[O+]
capacity factor (RP-HPLC C18 column, refers to: aqua complex; MeCN:water 40:60, 0.1% TFA; isocratic elution): 4.4

CC(C)C[C@@H](NC(=O)[C@@H](CCCCN)NC(=O)CNC(=O)CNC(=O)[C@@H]1CSSC[C@H](N)C(=O)NCC(=O)N[C@@H](CCCNC(=N)N)C(=O)N[C@@H](CCCNC(=N)N)C(=O)N[C@@H](C)C(=O)NCC(=O)NCC(=O)N[C@@H](CO)C(=O)N1)C(=O)N[C@H](C)C(=O)N[C@H](CCCCN)C(=O)N[C@H](CC(C)C)C(=O)N[C@H](C)C(=O)N[C@H](CCCCN)C(=O)N[C@H](CCCCN)C(=O)N[C@H](CC(C)C)C(=O)N[C@H](C)C(=O)N[C@H](CCCCN)C(=O)N[C@H](CC(C)C)C(=O)N[C@H](C)C(=O)N[C@H](CCCCN)C(=O)O
half-life (cynomolgus monkey, plasma; intravenous, 9 mg/kg, infusion): 40.2 min

CC(C)C[C@@H]1NC(=O)[C@@H](Cc2ccccc2)NC(=O)[C@H](CCN)NC(=O)[C@@H](NC(=O)[C@H](CN)NC(=O)[C@@H](NC(=O)CC(CN)C2CCCCC2)[C@@H](C)O)CCNC(=O)[C@H]([C@@H](C)O)NC(=O)[C@H](CCN)NC(=O)[C@H](CCN)NC1=O (some centres unmarked)
kidney concentration (LC-MS/MS; male CD-1 mouse, kidney homogenate; subcutaneous, 17.2 mg/kg single dose, 4 h): 198000 ng/g

CN(C)C(CNC(=O)Nc1cc(C(F)(F)F)ccc1N1CCOCC1)c1ccncc1 (centres unmarked)
serum total bilirubin (mouse, serum; intraperitoneal, 120 mg/kg single dose): 0.2 mg/dL

COc1ccc(F)cc1S(=O)(=O)Nc1cnc2c(c1)C(=O)NCCO2
half-life (male C57BL/6 mouse, plasma; oral, 1 mg/kg, single dose): 66 min

CSCC[C@@H]1NC(=O)[C@@H]2CSSC[C@H](NC(=O)[C@H](CO)NC(=O)[C@H](C)N)C(=O)N[C@@H](CCCNC(=N)N)C(=O)N[C@@H]([C@@H](C)O)C(=O)N3CCC[C@H]3C(=O)N[C@@H](CCCCN)C(=O)N[C@@H](CC(=O)O)C(=O)N[C@H]3CSSC[C@H](NC(=O)[C@H](CCCCN)NC(=O)[C@H](CCCNC(=N)N)NC(=O)[C@H](CC(N)=O)NC1=O)C(=O)N[C@@H](CCCCN)C(=O)N[C@H]1CSSC[C@H](NC(=O)[C@@H]4CCCN4C(=O)[C@H](CC(=O)O)NC(=O)[C@H](C)NC3=O)C(=O)N[C@@H](C)C(=O)N[C@@H](CCCCN)C(=O)N[C@@H](CCC(=O)O)C(=O)N[C@@H]([C@@H](C)O)C(=O)NCC(=O)N[C@@H](CSSC[C@@H](C(N)=O)NC(=O)[C@H](CCCNC(=N)N)NC(=O)[C@H](CC(N)=O)NC1=O)C(=O)N1CCC[C@H]1C(=O)N[C@@H](Cc1ccc(O)cc1)C(=O)NCC(=O)N[C@@H](CCCCN)C(=O)N2
VLDL (DA rat, pristane-induced arthritis, serum; subcutaneous, 0.1 mg/kg once weekly, 21 days): 10.8 mg/dL

COC[C@@H](NC(C)=O)C(=O)NCc1ccc(OCc2cccc(OC(F)(F)F)c2)cc1
TD50 (behavioural toxicity; rat; oral): > 500 mg/kg

CCCC[C@H]1C(=O)N(C)[C@@H](CCCC)C(=O)N[C@@H](CCCNC(=O)CN2CCN(CC(=O)O)CCN(CC(=O)O)CCN(CC(=O)O)CC2)C(=O)N[C@H](C(=O)NCC(N)=O)CSCC(=O)N[C@@H](Cc2ccc(O)cc2)C(=O)N(C)[C@@H](C)C(=O)N[C@@H](CC(N)=O)C(=O)N2CCC[C@H]2C(=O)N[C@@H](Cc2c[nH]cn2)C(=O)N[C@@H](CC(C)C)C(=O)N(C)CC(=O)N[C@@H](Cc2c[nH]c3ccccc23)C(=O)N[C@@H](CO)C(=O)N[C@@H](Cc2c[nH]c3ccccc23)C(=O)N1C [gallium-68 labelled]
tumour to muscle ratio (static PET; NOD/SCID mice, CHO-hPD-L1 xenograft, CHO-hPD-L1 tumour; intravenous, 1 h post injection, before PBS treatment): 6.82 ± 0.65

Cc1cc(Nc2nc(C[C@@]3(C(=O)O)CCN(Cc4cccc(Cl)c4F)[C@H](C)C3)cc(C)c2F)n[nH]1
clearance (Sprague-Dawley rat, both sexes, plasma; intravenous, 0.5 mg/kg): 0.729 mL/min/kg

CC(C)C[C@@H](N)C(=O)NCC(=O)N[C@H](C)C(=O)N[C@H](CO)C(=O)N[C@H](Cc1c[nH]c2ccccc12)C(=O)N[C@H](Cc1c[nH]cn1)C(=O)N[C@H](CCCNC(=N)N)C(=O)N1CCC[C@@H]1C(=O)N[C@H](CC(=O)O)C(=O)N[C@H](CCCCN)C(=O)N[C@H](CS)C(=O)N[C@H](CS)C(=O)N[C@H](CC(C)C)C(=O)NCC(=O)N[C@H](Cc1ccc(O)cc1)C(=O)N[C@H](CCC(N)=O)C(=O)N[C@H](CCCCN)C(=O)N[C@H](CCCNC(=N)N)C(=O)N1CCC[C@@H]1C(=O)N[C@H](CC(C)C)C(=O)N1CCC[C@@H]1C(N)=O
accuracy (LC-MS/MS; rat plasma; 5000 ng/mL, -80 to 25 °C, 3 freeze-thaw cycles; relative to: nominal): 111%

Nc1ccn(CC2COP(=O)(OCCCCCCCCCCCCNC(=O)CCCCC3SCC4NC(=O)NC43)CO2)c(=O)n1 (mixture of isomers)
partition coefficient (rabbit, retina-choroid; relative to: parent CDF): 9.8 fold

CC(C)C[C@H](NC(=O)[C@H](CCCCN)NC(=O)[C@H](CCC(=O)O)NC(=O)[C@H](C)NC(=O)[C@@H](NC(=O)[C@H](CCCCN)NC(=O)[C@H](CC(=O)O)NC(=O)[C@H](Cc1ccc(O)cc1)NC(=O)[C@H](Cc1ccccc1)NC(=O)[C@H](C)NC(=O)[C@H](CCCCN)NC(=O)[C@H](CC(C)C)NC(=O)[C@H](Cc1c[nH]c2ccccc12)NC(=O)[C@@H](N)CC(=O)O)C(C)C)C(=O)N[C@@H](CCCCN)C(=O)N[C@@H](CCC(=O)O)C(=O)N[C@@H](C)C(=O)N[C@@H](Cc1ccccc1)C(=O)N1CCC[C@H]1C(=O)N[C@@H](CC(=O)O)C(=O)N[C@@H](Cc1c[nH]c2ccccc12)C(=O)N[C@@H](C)C(=O)N[C@@H](CCCCN)C(=O)N[C@@H](C)C(=O)N[C@@H](C)C(=O)N[C@@H](Cc1ccc(O)cc1)C(=O)N[C@@H](CC(=O)O)C(=O)N[C@@H](CCCCN)C(=O)N[C@@H](C)C(=O)N[C@@H](C)C(=O)N[C@@H](CCC(=O)O)C(=O)N[C@@H](CCCCN)C(=O)N[C@@H](C)C(=O)N[C@@H](CCCCN)C(=O)N[C@@H](CCC(=O)O)C(=O)N[C@@H](C)C(=O)N[C@@H](C)C(=O)O
volume of distribution at steady state (cynomolgus monkey female, plasma; intravenous infusion, 8 mg/kg, day 1, 30 min infusion): 0.053 L/kg

C[C@H]1N=C(c2ccccc2F)c2cc(Br)ccc2-n2cnc(C(=O)NCCS(=O)(=O)O)c21
excretion in urine and feces (Swiss Webster mouse; intraperitoneal, 750 µg of parent drug, 0 to 48 h; relative to: dose): 16.6 ± 1%

CCCCCCCC(=O)SCC/C=C/[C@@H]1CC(=O)NCc2nc(cs2)C2=N[C@@](C)(CS2)C(=O)N[C@@H](C(C)C)C(=O)N1
clearance (female NIH Swiss mice; intravenous bolus, 5 mg/kg, two-compartment model): 111 mL/min/kg

COc1cc(NC(=O)C(=O)c2c(C)n(Cc3ccc(Cl)cc3)c3ccc(C)cc23)ccn1
AUC (male cynomolgus monkey, plasma; intravenous, 1 mg/kg): 2140 ng·h/mL

CN(C)CCN(Cc1ccccc1)C(=O)c1cc(-c2ccc(F)cc2)n2nc(C(C)(C)C)cc2n1
MTD (general toxicity; CD-1 mouse; intravenous, single dose): 100 mg/kg

CC[C@H](C)[C@H](NC(=O)[C@H](CC(=O)O)NC(=O)[C@H](CO)NC(=O)[C@H](CCC(N)=O)NC(=O)[C@H](C)NC(=O)[C@H](CC(=O)O)NC(=O)[C@H](CCC(=O)O)NC(=O)[C@H](Cc1c[nH]cn1)NC(=O)[C@H](Cc1ccc(O)cc1)NC(=O)[C@H](C)NC(=O)[C@H](CC(=O)O)NC(=O)[C@H](CCC(=O)O)NC(=O)[C@H](Cc1c[nH]cn1)NC(=O)[C@H](Cc1ccc(O)cc1)NC(=O)[C@H](C)NC(=O)[C@H](CC(=O)O)NC(=O)[C@H](CCC(=O)O)NC(=O)[C@H](Cc1c[nH]cn1)NC(=O)[C@H](Cc1ccc(O)cc1)NC(=O)[C@H](C)NC(=O)[C@H](CC(=O)O)NC(=O)[C@H](CCC(=O)O)NC(=O)[C@H](Cc1c[nH]cn1)NC(=O)[C@H](Cc1ccc(O)cc1)NC(=O)[C@H](C)NC(=O)[C@H](CC(=O)O)NC(=O)[C@H](CCC(=O)O)NC(=O)[C@H](Cc1c[nH]cn1)NC(=O)[C@@H](N)Cc1ccc(O)cc1)C(=O)N[C@H](C(=O)N[C@@H](C)C(=O)N[C@@H](Cc1c[nH]cn1)C(=O)N[C@@H](CC(C)C)C(=O)N[C@@H](CC(C)C)C(=O)O)C(C)C
EO share of white cells (mouse SN model, blood; dose not given): 2.4 ± 0.6%

CC[C@H](C)[C@H](NC(=O)[C@H](Cc1c[nH]cn1)NC(=O)[C@H](CCCCN)NC(=O)[C@H](C)NC(=O)[C@H](C)NC(=O)[C@H](Cc1c[nH]cn1)NC(=O)[C@H](CCCNC(=N)N)NC(=O)CNC(=O)[C@H](Cc1c[nH]cn1)NC(=O)[C@H](CCCCN)NC(=O)[C@H](Cc1ccccc1)NC(=O)[C@@H](NC(=O)[C@H](CO)NC(=O)CNC(=O)[C@H](Cc1c[nH]c2ccccc12)NC(=O)CN)[C@@H](C)CC)C(=O)NCC(=O)N[C@@H](Cc1c[nH]cn1)C(=O)N[C@@H](C)C(=O)N[C@@H](C)C(=O)N[C@H](C(=O)N[C@@H](CC(N)=O)C(=O)N[C@@H](Cc1c[nH]cn1)C(=O)N[C@@H](Cc1ccc(O)cc1)C(=O)N[C@@H](CC(C)C)C(N)=O)C(C)C
acute toxic concentration (zebrafish embryos; 1 h, 4, 28, 52 hpf): 5 to 25 µg/mL

A few entries again:
Cc1cc(Nc2nc(C[C@@]3(C(=O)O)CCN(Cc4cccc(Cl)c4F)[C@H](C)C3)cc(C)c2F)n[nH]1
clearance (Sprague-Dawley rat, both sexes, plasma; intravenous, 0.5 mg/kg): 0.729 mL/min/kg

CC(C)C[C@@H](N)C(=O)NCC(=O)N[C@H](C)C(=O)N[C@H](CO)C(=O)N[C@H](Cc1c[nH]c2ccccc12)C(=O)N[C@H](Cc1c[nH]cn1)C(=O)N[C@H](CCCNC(=N)N)C(=O)N1CCC[C@@H]1C(=O)N[C@H](CC(=O)O)C(=O)N[C@H](CCCCN)C(=O)N[C@H](CS)C(=O)N[C@H](CS)C(=O)N[C@H](CC(C)C)C(=O)NCC(=O)N[C@H](Cc1ccc(O)cc1)C(=O)N[C@H](CCC(N)=O)C(=O)N[C@H](CCCCN)C(=O)N[C@H](CCCNC(=N)N)C(=O)N1CCC[C@@H]1C(=O)N[C@H](CC(C)C)C(=O)N1CCC[C@@H]1C(N)=O
accuracy (LC-MS/MS; rat plasma; 5000 ng/mL, -80 to 25 °C, 3 freeze-thaw cycles; relative to: nominal): 111%
